Experimental data of several laboratories.
Lines come from different studies, so protocols differ.

C[C@H]1O[C@@H](O[C@H]2CC[C@@]3(C)[C@@H](CC[C@]4(C)[C@@H]3C=C[C@]35OC[C@@]6(CCC(C)(C)C[C@H]63)[C@@H](O)C[C@]54C)[C@]2(C)CO)[C@H](O)[C@@H](O[C@@H]2O[C@H](CO)[C@@H](O)[C@H](O)[C@H]2O)[C@H]1O — plasma concentration (UHPLC-MS/MS; mouse, plasma; oral, 50 mg/kg, 24 h): 0 ng/mL
Cc1ccc([C@@H]2O[C@H](CO)[C@@H](O)[C@H](O)[C@H]2O)cc1Cc1ccc(-c2ccc(F)cc2)s1 — urinary sodium excretion change (Japanese type 2 diabetes patients; 100 mg, day 18, 24 h urine collection; baseline: baseline): -56.2 mEq
CC[C@@](N)(c1cnc(C(F)(F)F)c(Cl)c1)c1c2ncn(C3CC3)c(=O)c2nn1C — CLint,u (rat Sprague-Dawley male, blood; intravenous, 1 mg/kg): 1.9 mL/min/kg
CNC(=O)c1ccc(-c2cnc3ncc(Cc4ccc5ncccc5c4)n3n2)cc1F — Tremor patients (Japanese patients; oral, 400 mg twice daily, any grade): 1%
Cc1ccc(Sc2ccccc2N2CCNCC2)c(C)c1 — participants with TEAE (item: Dizziness; healthy adult women; oral, 10 mg daily, 12 days): 16.7%
Cn1cc([C@H]2C[C@H]3CSC(N)=N[C@@]3(c3ccc(F)cc3F)CO2)cn1 — CSF concentration (male 129/SVE mouse, CSF; subcutaneous, 50 mg/kg, 18 h): 16 nM
N#Cc1ccc2c(c1)[C@H]1CCCN(C(=O)c3ccc4[nH]cnc4c3)[C@H]1C2 — SHBG level (human females; 160 mg, end of trial): 31.5 nmol/L
C[C@H]1O[C@@H](O[C@H]2[C@@H](O)C[C@H](O[C@H]3[C@@H](O)C[C@H](O[C@H]4CC[C@@]5(C)[C@H](CC[C@@H]6[C@@H]5C[C@@H](O)[C@]5(C)[C@@H](C7=CC(=O)OC7)CC[C@]65O)C4)O[C@@H]3C)O[C@@H]2C)C[C@H](O)[C@@H]1O — subjects with adverse event (item: vascular disorders; healthy men; oral, dose not given, 8 days, treatment-emergent, crossover trial): 0%
C=CC(=O)N(C)CCOc1c(N)ncnc1-c1cc(F)cc(NC(=O)c2ccc(C3CC3)cc2F)c1C — AUC (human, plasma; oral, 50 mg once daily, day 12): 209 ng·h/mL
Cc1c(-c2ccc(N3CCc4cccc(C(=O)Nc5nc6ccccc6s5)c4C3)nc2C(=O)O)cnn1CC12CC3(C)CC(C)(C1)CC(OCCNCC[C@H](O)CO)(C3)C2 — plasma concentration (anaesthetized male beagle dog; iv infusion, 0.01 mg/kg/min, 15 min): < 2 ng/mL
OC[C@H]1OC(O)[C@H](O)[C@@H](O)[C@@H]1O (some centres unmarked) — osmolality (aqueous solution; 10 mM, added: glucosamine): 7 mOsmol/kg
C[C@@H](O)CCOC(=O)C[C@@H](C)O — decrease (item: pH; human, venous blood; oral, 60 min, unit not given; baseline: baseline): -0.07
O=C(O)CCC(=O)O.[2H]C([2H])([2H])Oc1cc(C)c2[nH]ccc2c1CN1CC[C@@H](C2CC2)C[C@H]1c1ccc(C(=O)O)cc1 — TEAE proteinuria (healthy Chinese subjects; 600 mg, single ascending dose): 0%
CCOc1ccc(C(C)=O)cc1Cc1c(O)nc(N)nc1O — logP (octanol/buffer; pH 11, known kinase inactives set): -2.1
CN(CCCN1CCN(C(=O)CN2CCN(CC(=O)[O-])CCN(CC(=O)[O-])CCN(CC(=O)[O-])CC2)CC1)c1ccc2nccc(C(=O)NCC(=O)N3CC(F)(F)C[C@H]3C#N)c2c1.[68Ga+3] — uptake (mice, HT-1080.hFAP and HT-1080 wild-type xenografts, pancreas; iv, 500 pmol, 4 h post injection): 0.1 %IA/g
Cc1nc(-c2ccc(OCC(C)C)c(C#N)c2)sc1C(=O)O — moderate hepatic event incidence (healthy Chinese subjects; oral, 40 mg, fed): 2.5%
CCn1cc(C(=O)N2CCOCC2)c(=O)c2cc(NC3Cc4ccccc4C3)cnc21 — Cmax (human, fasted; oral suspension, 1200 mg single dose, arithmetic mean): 821 ng/mL
Cc1nc(C)c(-c2ccnc(Nc3ccc(F)cc3)n2)s1 — logP (octanol/buffer; pH 11): 3.96
CCOc1c([C@H](C)n2nc(C)c3c(N)ncnc32)cc(Cl)c(F)c1[C@@H]1CNC(=O)C1 — ECG observations (item: QTcF above 500 ms; previously treated B-cell malignancy; oral, 45 mg once daily, baseline QTcF ≤450 ms): 0%
O=C(Nc1nc2cccc(-c3ccc(CN4CCS(=O)(=O)CC4)cc3)n2n1)C1CC1 — treatment-emergent adverse events (item: pain in extremity; human rheumatoid arthritis patients; oral, 75 mg once daily, 4 weeks, regardless of relatedness): 0%
